Measured values pooled from the literature.
Each numbered part is a random draw from the data of one study; scales do not carry over between parts. Positions count from the first letter of the parent shown.

Study 1 — technique: RNA Bind-n-Seq; form: RNA; medium: in vitro; concentration: not given; setting: RNA with constant flanks, ends assumed; baseline: input RNA pool; reading: higher = stronger binding
Target: RING finger protein unkempt homolog, zinc fingers 1-6, GST-SBP tag (UNK, Homo sapiens, UniProt Q9C0B0, residues 30-357)
Residues (chain): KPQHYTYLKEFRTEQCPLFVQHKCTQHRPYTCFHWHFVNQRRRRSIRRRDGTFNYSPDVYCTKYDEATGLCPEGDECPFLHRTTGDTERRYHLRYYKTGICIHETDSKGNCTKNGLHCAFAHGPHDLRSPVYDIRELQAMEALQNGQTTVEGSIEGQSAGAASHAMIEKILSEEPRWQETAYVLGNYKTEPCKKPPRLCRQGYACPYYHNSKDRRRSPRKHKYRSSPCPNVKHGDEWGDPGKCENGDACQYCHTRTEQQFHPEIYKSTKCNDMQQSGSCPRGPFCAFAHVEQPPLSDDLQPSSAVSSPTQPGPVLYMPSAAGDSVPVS
With `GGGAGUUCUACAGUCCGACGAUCCCUGAUACUUUGGAUCCAGCACUGAUGAGGCCAGGGAGAUUGGAUAGAAAAAUUGAAUUCCGCUUGCCCGAUCUAGAGGGUCGGACCCACAUAUUUAAGAUUCACGCUCGUUCAAUGAGUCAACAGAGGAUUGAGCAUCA` the bound/input enrichment was 0.317 ratio.
`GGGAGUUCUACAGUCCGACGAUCACUUGCUGUCUCUUAGAGGCUGAGCUUCAUUUCUAUGAGCAAAGAGCUCAUUUAGCAAUGCCGUUAUUUCAGUAUUUAUUUCUAUUAUGGAAUCCCUGGGGUUCAGAAUGUAACUUUGUACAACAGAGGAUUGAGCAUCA` gave a bound/input enrichment of 2.8 ratio.
For `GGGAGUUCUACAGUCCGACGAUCGAGUCUGGGUUCAGGGAGCCCGUGCUGGAUGCCAAGUCGGAGGUCACGGGCCAGCUUACCGAUUUUCAGUGGAAACUGGGCAUGGCUGUGAGCUCUGACAGCUGCAGAUCUCUCAAGUAUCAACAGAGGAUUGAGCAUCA`, the bound/input enrichment was 0.0847 ratio.
With `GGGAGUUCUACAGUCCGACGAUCGCAUUUGAAAGCUCAUGACAGAGCUAAAGAUCUGCCCCCCCUUCUCUCCCCUAUUUCUUUCCGGUGCCAUCUCAGUCUAAUCAUGGGUAUAAAUUCACCUUGGCCAGAGAAACUCACUAACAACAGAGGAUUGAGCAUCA` the bound/input enrichment was 0.548 ratio.
`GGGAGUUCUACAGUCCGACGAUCCACUGGGUCUACUAUCUGUAAAAAAUAUACAUAUAAAUAUAUAUAUACUGUUUGUUUAAAACCGAGUAUUUUUAUUUCAUUCCUUAACUCAUCAUCACAGCAGUGGUAUUGCACUUCAGACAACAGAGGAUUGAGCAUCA` has a bound/input enrichment of 0.632 ratio.
`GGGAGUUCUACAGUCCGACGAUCAGAGACCUUCUGAAGACGUUUAAAAUCUCAUCUGACACCUUUGUAACCUACAUGAUGACUUCCGAAGACCAUUACCAUUCUGAUGUGGCAUAUCACAACAGCCUGCAUGCUGCUGACGUGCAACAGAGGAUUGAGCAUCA` gave a bound/input enrichment of 0.114 ratio.
The bound/input enrichment of `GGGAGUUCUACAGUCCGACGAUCAGGGCCGCUCCUUCACGCCGGAGACAGGCGGGCCGCCGGUUGCGCUACCUGCCUACUGGCCGCUUUCCCUUCCUCCUCUUGCUGCUGCUGCUCUGCAUCCAGCUCGGGGGCGGACAGAAGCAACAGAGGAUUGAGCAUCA` is reported as 0.119 ratio.
`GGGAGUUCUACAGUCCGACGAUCAAAAAAAGAAUAAAAAUCAGCCAUUUUCAACAAUUUAUAUUAUUUUUAAAAAUAAAUUUCACCCGUGCAUGGUUUUACAAUGGGAGAGAAUGCAACAGGGUGGUACAAAGACACACCGUGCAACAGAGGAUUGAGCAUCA` gave a bound/input enrichment of 2.17 ratio.

Study 2 — technique: protein-binding microarray; form: double-stranded DNA, one strand shown; medium: in vitro; concentration: not given; reading: higher = stronger binding
Target: Transcriptional repressor CTCF (CTCF, Homo sapiens, UniProt P49711, residues 1-727, full length assumed)
Setting: k-mer, scored over probes, only values ≥0.25
Target sequence (chain): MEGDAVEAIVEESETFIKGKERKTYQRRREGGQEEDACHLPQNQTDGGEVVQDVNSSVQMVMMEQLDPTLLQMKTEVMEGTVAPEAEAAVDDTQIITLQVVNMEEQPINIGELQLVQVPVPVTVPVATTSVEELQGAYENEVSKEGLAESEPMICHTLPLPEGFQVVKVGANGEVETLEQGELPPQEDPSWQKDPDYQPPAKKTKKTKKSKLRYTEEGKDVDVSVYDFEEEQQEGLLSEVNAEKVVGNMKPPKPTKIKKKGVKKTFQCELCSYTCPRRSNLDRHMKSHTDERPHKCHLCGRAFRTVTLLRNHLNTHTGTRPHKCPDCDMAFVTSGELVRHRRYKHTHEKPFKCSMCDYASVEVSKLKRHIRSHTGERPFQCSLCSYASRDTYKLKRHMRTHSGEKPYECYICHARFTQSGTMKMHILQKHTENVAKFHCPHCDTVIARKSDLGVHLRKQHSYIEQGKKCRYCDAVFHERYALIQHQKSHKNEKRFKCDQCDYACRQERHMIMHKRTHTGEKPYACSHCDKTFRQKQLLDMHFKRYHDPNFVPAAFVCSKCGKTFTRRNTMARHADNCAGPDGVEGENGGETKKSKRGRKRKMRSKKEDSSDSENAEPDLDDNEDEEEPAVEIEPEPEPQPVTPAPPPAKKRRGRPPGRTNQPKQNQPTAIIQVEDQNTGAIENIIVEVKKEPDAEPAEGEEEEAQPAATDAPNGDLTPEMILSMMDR
`AGGTAATA` gave an E-score of 0.269.
For `AAAAATTA`, the E-score was 0.34.
`CAGTAATG` has an E-score of 0.256.
`CAAATAAC` gave an E-score of 0.327.
`ATTACTAC` gave an E-score of 0.26.
With `ACATTGTA` the E-score was 0.271.
With `TACATACA` the E-score was 0.363.
With `AATAATAG` the E-score was 0.276.

Study 3 — target: CCNB3, cyclin fold, Cln2 fusion (human); technique: yeast growth competition, sequencing; medium: yeast; setting: strong parent motif; baseline: not given; reading: higher = stronger binding
Parent: viral docking peptide; YKVKRRLVFGADD; partner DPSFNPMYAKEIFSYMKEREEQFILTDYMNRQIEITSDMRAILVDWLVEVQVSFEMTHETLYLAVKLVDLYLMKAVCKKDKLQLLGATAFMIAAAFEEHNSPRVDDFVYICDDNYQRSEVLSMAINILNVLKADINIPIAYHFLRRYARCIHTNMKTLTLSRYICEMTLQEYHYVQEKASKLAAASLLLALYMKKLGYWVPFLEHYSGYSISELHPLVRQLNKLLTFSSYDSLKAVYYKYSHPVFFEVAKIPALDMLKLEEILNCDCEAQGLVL
`YKVNRRLVFGADD [K4N]` — result for “normalised enrichment score”: 1.76.
Under “normalised enrichment score”, `YKVKRRLVFNADD [G10N]` is recorded as 2.
Under “normalised enrichment score”, `YKVKRRLVNGADD [F9N]` is recorded as 0.0203.
Under “normalised enrichment score”, `YHVKRRLVFGADD [K2H]` is recorded as 2.69.

Study 4 — target: UBE2A UBC core domain (UniProt P49459); technique: yeast two-hybrid; medium: yeast; setting: mostly zero background; baseline: not given; reading: higher = stronger interaction
Sequence of UniProt P49459 (whole entry, looked up): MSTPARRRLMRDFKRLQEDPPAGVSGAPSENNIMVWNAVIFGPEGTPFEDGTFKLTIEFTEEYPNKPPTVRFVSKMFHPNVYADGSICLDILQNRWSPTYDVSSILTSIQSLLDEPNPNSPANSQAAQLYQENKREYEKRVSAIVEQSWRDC
B1: ARK2C RING domain (UniProt Q6ZSG1); chain EGEESDTDEKCTICLSMLEDGEDVRRLPCMHLFHQLCVDQWLAMSKKCPICRVDIETQLGAD
B2: RNF170 RING domain (UniProt Q96K19); chain TRQQFYTDMYCPICLHQASFPVETNCGHLFCGACIIAYWRYGSWLGAISCPICRQTVTLLLTVF
B3: CUL9 RING domain (UniProt Q8IWT3); chain AQAVPVRPDHCPVCVSPLGCDDDLPSLCCMHYCCKSCWNEYLTTRIEQNLVLNCTCPIADCPAQPTGAFIR
Under “lacZ reporter activity”, `B1 (ARK2C RING domain)` is recorded as 0.
`B2 (RNF170 RING domain)`: “lacZ reporter activity” 0.
Under “lacZ reporter activity”, `PEELQAMDNVCIICREEMVTGAKRLPCNHIFHTSCLRSWFQRQQTCPTCRMDVLRASLPA (SYVN1 RING domain (UniProt Q86TM6))` is recorded as 0.
`B3 (CUL9 RING domain)`: “lacZ reporter activity” 0.
`QHHELTSLFECPVCFDYVLPPILQCQAGHLVCNQCRQKLSCCPTCRGALTPSIRNL (SIAH2 RING domain (UniProt O43255))` — result for “lacZ reporter activity”: 0.

Repeated from above (study 2):
`CAAATAAC` gave an E-score of 0.327.
`ATTACTAC` gave an E-score of 0.26.
With `ACATTGTA` the E-score was 0.271.
With `TACATACA` the E-score was 0.363.
